Results collected from several papers.
Several values in a cell are separate wells, animals, samples, runs or records. ± marks the error that the study gave.

CCCC[C@H](NC(=O)CNC(=O)CNC(=O)CN1CCN(CC(=O)O)CCN(CC(=O)O)CCN(CC(=O)O)CC1)C(=O)N[C@H]1CC(=O)NCCCC[C@@H](C(N)=O)NC(=O)[C@H](Cc2c[nH]c3ccccc23)NC(=O)[C@H](CCCNC(=N)N)NC(=O)[C@@H](Cc2ccccc2)NC(=O)[C@H](Cc2c[nH]cn2)NC1=O [gallium-67 labelled] — tumour to tissue ratio (female C57 mice, B16/F1 melanoma; intravenous, 0.037 MBq, 0.5 h; relative to: tumour over lung): 8.35
N=C(N)NCCC[C@H](NC(=O)[C@@H]1CSSC[C@H](NC(=O)[C@H](Cc2ccc3ccccc3c2)NC(=O)[C@H](CCCNC(=N)N)NC(=O)[C@H](CCCNC(=N)N)NC(=S)Nc2ccc(C[C@H]3CN(CC(=O)O)CCN(CC(=O)O)CCN3CC(=O)O)cc2)C(=O)N[C@@H](Cc2ccc(O)cc2)C(=O)N[C@@H](CCCNC(N)=O)C(=O)N[C@@H](CCCCN)C(=O)N[C@H](CCCCN)C(=O)N2CCC[C@H]2C(=O)N[C@@H](Cc2ccc(O)cc2)C(=O)N[C@@H](CCCNC(=N)N)C(=O)N[C@@H](CCCNC(N)=O)C(=O)N1)C(N)=O [copper-64 labelled] — tumour and spleen uptake (mice, CHO-CXCR4 tumour and spleen; 4 h, together with: unlabeled peptide 50 µg): inhibited
CCCC[C@H](NC(=O)CNC(=O)CNC(=O)CN1CCN(CC(=O)O)CCN(CC(=O)O)CC1)C(=O)N[C@H]1CC(=O)NCCCC[C@@H](C(N)=O)NC(=O)[C@H](Cc2c[nH]c3ccccc23)NC(=O)[C@H](CCCNC(=N)N)NC(=O)[C@@H](Cc2ccccc2)NC(=O)[C@H](Cc2c[nH]cn2)NC1=O [gallium-67 labelled] — tumour to tissue ratio (female C57 mice, B16/F1 melanoma; intravenous, 0.037 MBq, 24 h; relative to: tumour over lung): 22.5
N=C(N)NCCC[C@H](NC(=O)[C@@H]1CSSC[C@H](NC(=O)[C@H](Cc2ccc3ccccc3c2)NC(=O)[C@H](CCCNC(=N)N)NC(=O)[C@H](CCCNC(=N)N)NC(=O)CN2CCN(CC(=O)O)CCN(CC(=O)O)CCN(CC(=O)O)CC2)C(=O)N[C@@H](Cc2ccc(O)cc2)C(=O)N[C@@H](CCCNC(N)=O)C(=O)N[C@@H](CCCCN)C(=O)N[C@H](CCCCN)C(=O)N2CCC[C@H]2C(=O)N[C@@H](Cc2ccc(O)cc2)C(=O)N[C@@H](CCCNC(=N)N)C(=O)N[C@@H](CCCNC(N)=O)C(=O)N1)C(N)=O [copper-64 labelled] — tumour uptake (PET; mice with CHO-CXCR4 tumours, CHO-CXCR4 tumour; 100 µCi, 4 h): 3.58 ± 0.67 %ID/g
O=C([O-])CN1CCN(CC(=O)[O-])CCN(CC(=O)NCCc2ccc3c(c2)C2C=CCC2C(c2cc4c(cc2Br)OCO4)N3)CCN(CC(=O)[O-])CC1.[111In+3] (stereo not shown) — tumour to tissue ratio (mice with Hec50 tumour xenograft; 4 h; relative to: tumour over muscle): 6
N=C(N)NCCC[C@@H]1NC(=O)[C@H](CCCCNC(=O)CON=C[C@H](F)[C@@H](O)[C@H](O)[C@H](O)CO)NC(=O)[C@@H](Cc2ccc(O)cc2)NC(=O)[C@H](CC(=O)O)NC(=O)CNC1=O [fluorine-18 labelled] — tumour uptake (nude mice, U-87 MG xenograft, tumour; intravenous, 2 h): 1.53 ± 1.59 %ID/g
CC(C)(C)ONc1nc(Nc2ccnc(C(F)(F)F)c2)nc(-c2cccc(C(F)(F)F)n2)n1 — tumour to plasma ratio (female Balb/cA nude mice xenograft; oral, 54.14 mg/kg, half-life; relative to: tumour over plasma): 2.1 fold
N=C(N)NCCC[C@H](NC(=O)CON=C[C@H](F)[C@@H](O)[C@H](O)[C@H](O)CO)C(=O)NCC(=O)N[C@@H](CC(=O)O)C(=O)O [fluorine-18 labelled] — tumour uptake (nude mice, U-87 MG xenograft, tumour; intravenous, 0.5 h): 0.94 ± 0.25 %ID/g
CCN(CC)c1ccc2c(-c3ccc(S(=O)(=O)NCCNC(=O)CN4CCN(CC(=O)[O-])CCN(CC(=O)O)CCN(CC(=O)[O-])CC4)cc3S(=O)(=O)[O-])c3ccc(=[N+](CC)CC)cc-3oc2c1.[64Cu+2] — tumour uptake (athymic nude mice, U-87 MG glioma xenograft; intravenous, 4 h post-injection): 7.6 %ID/g and 7.58 %ID/g
C[C@]12CC[C@@H]3c4ccc(OCC(=O)N[C@@H](CCCCNC(=O)CN5CCN(CC(=O)[O-])CCN(CC(=O)[O-])CCN(CC(=O)[O-])CC5)C(=O)O)cc4CC[C@H]3[C@@H]1CCC2=O.[68Ga+3] — tumour washout (female nude mice, MCF7 xenograft, tumour; 2.5 h): 16%
